Published values from different studies.
Compare with care: the assays were run in different laboratories. Numbers after ± are the reported error.

For `CNC(=O)O/N=C/C(C)(C)SC`, the percent metabolized was 10.9% (human liver mitochondrial preparation; 1 µM, 30 min, 0.5 mg/mL protein).
`CN1CC[C@@]23CCCC[C@@H]2[C@@H]1Cc1ccc(O)cc13` gave an AUC(0-t) of 53.9 ± 11.9 ng·h/mL (Wistar rat, both sexes, plasma; oral, 5 mg/kg DEM, DEM 2 h after pretreatment, added: QN 2.5 mg/kg single pretreatment).
For `CN[C@@](C)(C[18F])C(=O)O`, the tracer uptake was 1.4 %ID/g (A549 tumour model; host not given, muscle; 15 min, tumour-bearing).
With `CN(C)CCc1c[nH]c2ccccc12` the hepatocyte CLint was 13.2 µL/min/10⁶ cells (metabolic stability; human, hepatocytes; 3.1 µM).
The EC20 of `COc1cccc(C2(O)CCCCC2CN(C)C)c1` (stereo not drawn) is reported as greater than 400 µM (cytochrome c release, ELISA; BALB/cByJ female mouse liver mitochondria; 30 min; reference: alamethicin maximal release).
`COc1ccsc1CNCC[C@@]1(c2ccccn2)CCOC2(CCCC2)C1` gave a clearance of 935 mL/min (healthy human, normal renal function, plasma; intravenous, 1 mg single dose, arithmetic mean).
`COc1nc2ccc(Br)cc2cc1[C@@H](c1ccccc1)[C@@](O)(CCN(C)C)c1cccc2ccccc12` has a t1/2 of 116 h (mouse, C3HeB/FeJ, plasma; oral, 25 mg/kg, 72 to 168 h terminal).
`C#Cc1ccc2c(c1)C(c1ccccc1)=NCc1c(C(=O)OCC)ncn1-2` gave a compound remaining of less than 14% (metabolic stability; human, liver microsomes; 30 min, pH 7.4).
`C=C1C[C@@H]2[C@H](CC[C@]3(C)C(=O)CC[C@@H]23)[C@@]2(C)C=CC(=O)C=C12` — result for “median plasma concentration”: 6.9 ng/mL (LC-MS/MS; postmenopausal breast cancer women, plasma; oral, 25 mg/day, 2 h, prior chemotherapy).
With `CCCCCCCCCCC(=O)O[C@H]1CC[C@H]2[C@@H]3CCC4=CC(=O)CC[C@]4(C)[C@H]3CC[C@]12C` the testosterone concentration was 435 ng/dL (human blood; 300 ng/mL, 60 min, 4 °C, NaF 5 mg/mL, K2 oxalate 4 mg/mL).
The MRT(0-t) of `COc1ccc2c(c1)[C@]13CCCC[C@@H]1[C@H](C2)N(C)CC3` is reported as 2.43 ± 0.54 h (Wistar rat, both sexes, plasma; oral, 5 mg/kg, 2 h after pretreatment, added: single TCE 400 mg/kg).
`C#Cc1ccc2c(c1)C(c1ccccc1F)=N[C@@H](C)c1c(C(=O)OCCC)ncn1-2` has a compound remaining of less than 5% (metabolic stability; human, liver microsomes; 30 min).
For `C#Cc1ccc2c(c1)C(c1ccccn1)=NCc1c(-c3cnco3)ncn1-2`, the concentration was 552 nM (Sprague-Dawley rat, plasma; intraperitoneal, 10 mg/kg, 4 h, unbound).
`COc1ccc2c(c1)[C@]13CCCC[C@@H]1[C@H](C2)N(C)CC3` — result for AUC: “decreased” (measured: HHMA; rat, plasma; intraperitoneal, 30 mg/kg, three doses, added: MDMA 20 mg/kg oral; reference: MDMA with saline).
`Cc1ncc2n1-c1ccc(Cl)cc1C(c1ccccc1F)=NC2` has a Cmax of 39 ng/mL (healthy men, plasma; oral, 7.5 mg, day 19, LS mean, added: 7 days post amenamevir).
For `CN1C(=O)CC(=O)N(c2ccccc2)c2cc(Cl)ccc21`, the half-life was 2.26 h (CF-1 mouse, brain; intraperitoneal, 7 mg/kg).
`C[C@H]1CNCCc2ccc(Cl)cc21` gave an AUC(0-t) of 29 ng·h/mL (male Sprague-Dawley rat, plasma; subcutaneous, 0.5 mg/kg, single dose).
For `CC[C@@H]1CN2CC[C@@]3(O)C(=Nc4cccc(OC)c43)[C@@H]2C[C@@H]1/C(=C\OC)C(=O)OC`, the concentration was 3190 ± 184 ng/mL (rat, plasma extract; 3200 ng/mL, 12 h, 25 °C, autosampler stability).
